Experimental data collected from several papers.
Compare with care: the assays were run in different laboratories. ± gives the spread as reported.

Structure (SMILES) = Cc1ccccc1OCCCSCc1nc2ccccc2[nH]1; cell line = HCT-116 tumour organoids; assay = cytotoxicity, 3D culture; setting = 72 h; endpoint = IC50; result = 27.3 µM
Structure (SMILES) = Cc1cc(SCc2sc(-c3ccccc3F)nc2C)ccc1OCC(=O)O; cell line = HEK293T; setting = 18 h; endpoint = CC50; result = > 80 µM
Structure (SMILES) = COC(=O)[C@@H]1C(C=Nc2cncnc2NC(C)=O)=Cc2cc3c(cc2[C@H]1c1cc(OC)c(OC)c(OC)c1)OCO3; cell line = mouse splenocytes uninfected; assay = Alamar Blue; setting = 48 h; endpoint = CC50; result = > 100 µM
Structure (SMILES) = CC(=O)Nc1ccc(NC(=O)C(C)Sc2nnc(Nc3ccccc3F)s2)cc1 (stereo not shown); cell line = Jurkat; assay = MTS; endpoint = concentration reducing viability; result = ≥ 30 µM
Structure (SMILES) = O=C(/C=C/c1ccc(O)c(OC(F)(F)F)c1)C(CCCOC1CCCCO1)C(=O)/C=C/c1ccc(O)c(OC(F)(F)F)c1 (stereo not shown); cell line = SH-SY5Y; assay = MTT; setting = 0.9 µM, 24 h; endpoint = viability; result = 97.6 ± 1.6%
Structure (SMILES) = Cc1cc(SCc2sc(-c3cc4ccccc4[nH]3)nc2C)ccc1OCC(=O)O; cell line = HEK293T; setting = 18 h; endpoint = CC50; result = > 50 µM
Structure (SMILES) = COc1cc([C@@H]2c3cc4c(cc3[C@@H](C=C(C)C)[C@H]3COC(=O)[C@H]23)OCO4)cc(OC)c1OC; cell line = mouse splenocytes uninfected; assay = Alamar Blue; setting = 48 h; endpoint = CC50; result = 1.7 ± 0.2 µM
Structure (SMILES) = CCOc1ccccc1Nc1nnc(SCC(=O)Nc2cc(F)ccc2F)s1; cell line = Jurkat; assay = MTS; setting = 500 µM, 24 h; how to read = relative to: control; endpoint = viability; result = ~60%
Structure (SMILES) = Cc1cc(SCc2sc(-c3ccc(C(F)(F)F)c(Cl)c3)nc2C)ccc1OCC(=O)O; cell line = HEK293T; setting = 18 h; endpoint = CC50; result = > 33 µM
Structure (SMILES) = CCOc1ccc(S(=O)(=O)NC(=O)Cc2ccc(I)cc2)cc1Br; cell line = MDCKII-MDR1; setting = time not given; endpoint = recovery B-A; result = 97.5%
Structure (SMILES) = Cc1cc(SCc2sc(-c3ccc(C(=O)NCCN(C)C)cc3)nc2C)ccc1OCC(=O)O; cell line = HEK293T; setting = 18 h; endpoint = CC50; result = not toxic
Structure (SMILES) = O=C(O)c1ccc(-c2ccc([N+](=O)[O-])cc2Cl)o1; cell line = MRC-5; assay = cell viability; setting = 96 h; endpoint = IC50; result = > 100 µM
Structure (SMILES) = COc1cccc(-c2nc(C)c(CSc3ccc(OCC(=O)O)c(C)c3)s2)c1; cell line = HEK293T; setting = 18 h; endpoint = CC50; result = > 80 µM
Structure (SMILES) = COc1cc([C@@H]2c3cc4c(cc3C=C(C=O)[C@H]2C(=O)OCc2ccc(CBr)cc2)OCO4)cc(OC)c1OC; cell line = mouse splenocytes uninfected; assay = Alamar Blue; setting = 48 h; endpoint = CC50; result = 34.1 ± 3.5 µM
Structure (SMILES) = CN(C)C(=O)CCC(C(=O)/C=C/c1ccc(O)c(OC(F)(F)F)c1)C(=O)/C=C/c1ccc(O)c(OC(F)(F)F)c1; cell line = SH-SY5Y; assay = MTT; setting = 0.9 µM, 24 h; endpoint = viability; result = 98.6 ± 3.1%
Structure (SMILES) = NC(=O)c1ccc(-n2cccc2Cc2ccccc2F)cc1N[C@H]1CC[C@H](O)CC1; cell line = PC-3 MM-2; setting = 25 µM, 72 h; endpoint = viability; result = > 95%
Structure (SMILES) = COC(=O)CC(C(=O)/C=C/c1ccc(O)c(OC(F)(F)F)c1)C(=O)/C=C/c1ccc(O)c(OC(F)(F)F)c1; cell line = SH-SY5Y; assay = MTT; setting = 0.9 µM, 24 h; endpoint = viability; result = 92.9 ± 1.7%
Structure (SMILES) = COc1cccc(-c2cc(-n3nncc3-c3ccc(C(F)(F)F)cc3)ccc2OC)c1; cell line = Caco-2; endpoint = efflux ratio; result = 0.104 ± 0.02
Structure (SMILES) = COC(=O)[C@@H]1C(c2nc3ccccc3s2)=Cc2cc3c(cc2[C@H]1c1cc(OC)c(OC)c(OC)c1)OCO3; cell line = mouse splenocytes uninfected; assay = Alamar Blue; setting = 48 h; endpoint = CC50; result = 15.6 ± 0.6 µM
Structure (SMILES) = CC(C)(C)Nc1c(-c2ccc3c(c2)CN(C2CCC(=O)NC2=O)C3=O)nc2ccccn12 (stereo not shown); cell line = MOLT-4; assay = cell viability, CellTiter-Glo; setting = 72 h; endpoint = EC50; result = 0.012 µM
Structure (SMILES) = COc1ccccc1-c1nc(C)c(CSc2ccc(OCC(=O)O)c(C)c2)s1; cell line = HEK293T; setting = 18 h; endpoint = CC50; result = > 100 µM
Structure (SMILES) = O=C(CCN(CCC(=O)N[C@@H](Cc1c[nH]c2ccccc12)C(=O)O)C(=O)CCN(CCC(=O)N(CCC(=O)N[C@@H](Cc1c[nH]c2ccccc12)C(=O)O)CCC(=O)N[C@@H](Cc1c[nH]c2ccccc12)C(=O)O)C(=O)CCOCC(COCCC(=O)N(CCC(=O)N(CCC(=O)N[C@@H](Cc1c[nH]c2ccccc12)C(=O)O)CCC(=O)N[C@@H](Cc1c[nH]c2ccccc12)C(=O)O)CCC(=O)N(CCC(=O)N[C@@H](Cc1c[nH]c2ccccc12)C(=O)O)CCC(=O)N[C@@H](Cc1c[nH]c2ccccc12)C(=O)O)(COCCC(=O)N(CCC(=O)N(CCC(=O)N[C@@H](Cc1c[nH]c2ccccc12)C(=O)O)CCC(=O)N[C@@H](Cc1c[nH]c2ccccc12)C(=O)O)CCC(=O)N(CCC(=O)N[C@@H](Cc1c[nH]c2ccccc12)C(=O)O)CCC(=O)N[C@@H](Cc1c[nH]c2ccccc12)C(=O)O)COCCC(=O)N(CCC(=O)N(CCC(=O)N[C@@H](Cc1c[nH]c2ccccc12)C(=O)O)CCC(=O)N[C@@H](Cc1c[nH]c2ccccc12)C(=O)O)CCC(=O)N(CCC(=O)N[C@@H](Cc1c[nH]c2ccccc12)C(=O)O)CCC(=O)N[C@@H](Cc1c[nH]c2ccccc12)C(=O)O)N[C@@H](Cc1c[nH]c2ccccc12)C(=O)O; cell line = HEL or HeLa; assay = cell viability; endpoint = CC50; result = > 100 µM
Structure (SMILES) = O=C(/C=C/c1ccc(O)c(OC(F)(F)F)c1)C(CCOCCO)C(=O)/C=C/c1ccc(O)c(OC(F)(F)F)c1; cell line = SH-SY5Y; assay = MTT; setting = 0.9 µM, 24 h; endpoint = viability; result = 98.2 ± 3.6%
Structure (SMILES) = Cc1cc(SCc2sc(-c3cccc(C(F)(F)F)c3)nc2C)ccc1OCC(=O)O; cell line = HEK293T; setting = 18 h; endpoint = CC50; result = > 50 µM
Structure (SMILES) = CC(C(=O)/C=C/c1ccc(O)c(OC(F)(F)F)c1)C(=O)/C=C/c1ccc(O)c(OC(F)(F)F)c1; cell line = SH-SY5Y; assay = MTT; setting = 0.9 µM, 24 h; endpoint = viability; result = 97.1 ± 6.7%
Structure (SMILES) = CCOC(=O)COC(=O)[C@@H]1C(C=O)=Cc2cc3c(cc2[C@H]1c1cc(OC)c(OC)c(OC)c1)OCO3; cell line = mouse splenocytes uninfected; assay = Alamar Blue; setting = 48 h; endpoint = CC50; result = > 100 µM
Structure (SMILES) = O=C(O)CCC(C(=O)/C=C/c1ccc(O)c(OC(F)(F)F)c1)C(=O)/C=C/c1ccc(O)c(OC(F)(F)F)c1; cell line = SH-SY5Y; assay = MTT; setting = 0.9 µM, 24 h; endpoint = viability; result = 99.4 ± 2.2%
Structure (SMILES) = COc1ccc(CC(=O)OCc2ccc(-n3cccn3)cc2)cc1F; cell line = Jurkat; assay = MTS; setting = up to 100 µM; endpoint = viability; result = > 90%
Structure (SMILES) = COc1cc([C@@H]2c3cc4c(cc3[C@@H](CC(C)(C)O)[C@H]3COC(=O)[C@H]23)OCO4)cc(OC)c1OC; cell line = mouse splenocytes uninfected; assay = Alamar Blue; setting = 48 h; endpoint = CC50; result = 57.1 ± 2.5 µM
Structure (SMILES) = Cc1cc(SCc2sc(-c3c(C)noc3C)nc2C)ccc1OCC(=O)O; cell line = HEK293T; setting = 18 h; endpoint = CC50; result = > 100 µM
Structure (SMILES) = COc1cc([C@@H]2c3cc4c(cc3[C@H](CC(C)C)[C@H]3COC(=O)[C@H]23)OCO4)cc(OC)c1OC; cell line = mouse splenocytes uninfected; assay = Alamar Blue; setting = 48 h; endpoint = CC50; result = 16.4 ± 1.7 µM
Structure (SMILES) = CCOC(=O)C(C(=O)/C=C/c1ccc(O)c(OC(F)(F)F)c1)C(=O)/C=C/c1ccc(O)c(OC(F)(F)F)c1; cell line = SH-SY5Y; assay = MTT; setting = 0.9 µM, 24 h; endpoint = viability; result = 91.6 ± 2.3%
Structure (SMILES) = CCn1nccc1N=CC1=Cc2cc3c(cc2[C@@H](c2cc(OC)c(OC)c(OC)c2)[C@@H]1C(=O)OC)OCO3; cell line = mouse splenocytes uninfected; assay = Alamar Blue; setting = 48 h; endpoint = CC50; result = 8.8 ± 0.5 µM
Structure (SMILES) = COC(=O)CCCC(C(=O)/C=C/c1ccc(O)c(OC(F)(F)F)c1)C(=O)/C=C/c1ccc(O)c(OC(F)(F)F)c1; cell line = SH-SY5Y; assay = MTT; setting = 0.9 µM, 24 h; endpoint = viability; result = 98.2 ± 2%

Some of these lines once more:
Structure (SMILES) = COc1cccc(-c2nc(C)c(CSc3ccc(OCC(=O)O)c(C)c3)s2)c1; cell line = HEK293T; setting = 18 h; endpoint = CC50; result = > 80 µM
Structure (SMILES) = COc1cc([C@@H]2c3cc4c(cc3C=C(C=O)[C@H]2C(=O)OCc2ccc(CBr)cc2)OCO4)cc(OC)c1OC; cell line = mouse splenocytes uninfected; assay = Alamar Blue; setting = 48 h; endpoint = CC50; result = 34.1 ± 3.5 µM
Structure (SMILES) = CN(C)C(=O)CCC(C(=O)/C=C/c1ccc(O)c(OC(F)(F)F)c1)C(=O)/C=C/c1ccc(O)c(OC(F)(F)F)c1; cell line = SH-SY5Y; assay = MTT; setting = 0.9 µM, 24 h; endpoint = viability; result = 98.6 ± 3.1%
